Measurements from different studies.
Numbered parts are unrelated; each lists some results of a single study.

Set 1
Target: Prothrombin, mature alpha-thrombin (F2, Homo sapiens, UniProt P00734)
Technique: aptamer microarray, sandwich
Form: DNA with 2'F-ANA
Medium: in vitro
Concentration: 200 nM
Notes: whole 15-mer aptamer, many near background
Added: Cy3 exosite-II aptamer, 400 nM
Reading: higher = stronger binding
Oligonucleotide: GGTTGGTGTGGTTGG
Modification | mean fluorescence intensity
2'F-ANA at 2 3 5 6 7 10 11 12 | 67.3 a.u.
2'F-ANA at 1 4 6 7 8 9 10 13 | 51.3 a.u.
2'F-ANA at 3 4 6 7 10 12 15 | 295 a.u.
2'F-ANA at 4 5 8 10 11 12 13 14 | 45.9 a.u.
2'F-ANA at 2 3 8 9 10 12 13 15 | 410 a.u.
2'F-ANA at 2 3 4 6 8 12 13 | 605 a.u.
2'F-ANA at 3 4 6 8 10 11 | 233 a.u.
2'F-ANA at 3 5 6 7 8 15 | 131 a.u.
2'F-ANA at 1 4 8 9 10 11 13 14 | 46 a.u.

Set 2
Target: Sal-like protein 4, full length isoform B (SALL4, Homo sapiens, UniProt Q9UJQ4-2, residues 1-616)
Technique: universal PBM
Form: double-stranded DNA, one strand shown
Medium: in vitro
Concentration: not given
Notes: 8-mer, flanks averaged, mean of replicates
Reading: higher = stronger binding
Oligonucleotide | E-score
AGTCACTG | -0.184
GAGGAGCA | -0.261
GAGAAGAA | 0.0497
TAAGCACA | 0.0582
GAATAGCA | 0.087
ATGTAACA | 0.31
CATACGGG | -0.151
GTATTAAC | 0.0924
GCTGACCC | -0.172
GTACTTCA | 0.166

Set 3
Target: RING finger protein unkempt homolog, zinc fingers 1-6, GST-SBP tag (UNK, Homo sapiens, UniProt Q9C0B0, residues 30-357)
Sequence of UniProt Q9C0B0 (30-357, looked up): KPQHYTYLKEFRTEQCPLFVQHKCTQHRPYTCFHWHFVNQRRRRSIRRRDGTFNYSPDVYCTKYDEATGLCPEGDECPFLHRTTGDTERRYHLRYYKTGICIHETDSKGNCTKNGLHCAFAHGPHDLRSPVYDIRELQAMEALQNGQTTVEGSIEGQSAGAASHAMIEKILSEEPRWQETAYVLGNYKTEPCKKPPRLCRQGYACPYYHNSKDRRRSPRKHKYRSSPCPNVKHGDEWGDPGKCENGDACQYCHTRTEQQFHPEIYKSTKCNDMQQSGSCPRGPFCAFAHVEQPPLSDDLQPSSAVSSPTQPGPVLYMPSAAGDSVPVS
Technique: RNA Bind-n-Seq
Form: RNA
Medium: in vitro
Concentration: not given
Notes: RNA with constant flanks, human and mouse sites, ends assumed
Baseline: input RNA pool
Reading: higher = stronger binding
Oligonucleotide | bound/input enrichment [ratio]
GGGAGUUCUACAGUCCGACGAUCUCUCUUCCUAUGCCAGUACCAUACUGUCUUAAUUACUGUAGCCCUAGAGUAAGUUUUGAAUUUAGGAUGUGUUAGUUCUCUAGCUUUGUUCUACAUCAAGAUAAUUUUACCUGUUCUGGGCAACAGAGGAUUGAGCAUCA | 24.2
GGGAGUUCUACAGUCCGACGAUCAAAAAUGGCAAAUAAUAUGAUAUUGGGUGUUUAAAUAGUACAAUAUUGUUCAAAACACACUUUAUAAUUUUUAACAGACUGUUUGGACAUUGAUAAUUCCCCUAUCAAAUCUCAUGACAUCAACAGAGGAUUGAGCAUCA | 0.148
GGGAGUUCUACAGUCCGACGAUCCCCUCAAGAUGGUCACUUUACACUGAAAGCUGAGCUCAGCAGGAGCACUGUGGGAAACAAAGCAUUGACUCUUGAGUACAGAGUUUAAAAUAGACUUUUCUUUUAGAACUAGAAUUAGAGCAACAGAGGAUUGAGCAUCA | 19.5
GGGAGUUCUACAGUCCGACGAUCCUGUUGGAUGGAUUUCCAAGGACACUUCCACAGGCAGAAGCCCUGGAUAAAGUUUAUCAGAUAGACACAGUGAUAAAUCUCAACGUGCCCUUUGAGGUCAUUAAACAGCGCCUUACUGCUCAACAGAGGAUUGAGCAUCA | 0.131
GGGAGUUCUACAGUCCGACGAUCUUGUUCUGAAAUUGCUGUACUGCAAUGAAGAAGAGGAGAAAGGUUACUUCAAAUCUUGAGAAGAUCCAUCUAGGCUAUCAUAAAGAUUCUUCAGAAGGAAAUGUUGCAGUGGAGUGUGACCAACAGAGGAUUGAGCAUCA | 0.279
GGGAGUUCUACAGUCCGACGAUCACCUUGGCCGUGGGACUCAUCAACAUGGCAGAGGUGAUGCAGCAUCCUAAUGAAGGCGCACUGGUGCUUGGCCUACACAGCAACGUGAAGGAUGUCUCUGUGCCUGUGGCAGAAAUAAAGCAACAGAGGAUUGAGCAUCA | 0.173
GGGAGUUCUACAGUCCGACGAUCCCUCAGAUGGUGUCUGCCAUUGUACGCACCAUGCAGAAUACAAAUGAUGUAGAGACAGCUCGUUGUACUGCUGGGACUCUGCACAACCUUUCUCACCACCGCGAGGGCUUGCUGGCCAUCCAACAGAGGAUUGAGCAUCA | 0.112

Further values, each from its own experiment
Substance | target | assay | test system | conditions | how to read | endpoint | value
PhoQ, residues 284 288 289 292 302 303 MLMVEA | PhoP, residues 12 14 15 18 19 LFHKL (Escherichia coli, UniProt P23836) | Sort-seq, measured: YFP reporter | E. coli | PhoQ-PhoP variant library, added: 10 µM Mg2+ | baseline: high Mg2+ state, higher = stronger signaling | fold induction | 2.19

Excerpt of the above (set 2):
Oligonucleotide | E-score
GTATTAAC | 0.0924
TAAGCACA | 0.0582
